Published values collected from several papers.
Compare with care: the assays were run in different laboratories. ± marks the error that the study gave.

The IC50 of `COCC12CN(C)C3C4C(OC)C1C3(C(OC)CC2O)C1(O)CC2(O)C(OC)C(O)C4(O)C1C2OC(=O)c1ccccc1` (stereo not shown) is reported as 21.6 µM (HBE; cell growth or viability, MTT).
For `Cc1cc(C)c(-n2c3c([n+](-c4c(C)cc(C)cc4C)[c]2[Cu-][Cl])-c2cccc4cccc-3c24)c(C)c1`, the IC50 was 3 ± 2 µM (2008; cell growth, MTT; 72 h).
For `CC(C)(C)ONc1nc(Nc2ccnc(C(F)(F)F)c2)nc(-c2cccc(C(F)(F)F)n2)n1`, the IC50 was 0.0409 ± 0.0016 µM (TF-1 IDH2 R172K; 72 h).
With `CCCCCCCCCCCCCCn1c(-c2cccnc2)nc(-c2ccc(C)cc2)c1-c1ccc(C)cc1` the IC50 was 347 µM (L929; cell growth or viability, SRB).
The IC50 of `COc1ccc2cc3[n+](cc2c1OCc1cn(Cc2c(F)cccc2F)nn1)CCc1cc2c(cc1-3)OCO2` is reported as 46.2 µM (SW1990; cell growth or viability, MTT).
For `CCCCCCCCC=CCCCCCCCC(=O)OCC1OC(n2ccc(N)nc2=O)C(F)(F)C1O` (stereo not shown), the IC50 was 0.088 µM (Molt4/C8; cell growth or viability).
For `c1ccc(-c2nc(-c3cccnc3)[nH]c2-c2ccccc2)cc1`, the IC50 was 83.8 µM (L929; cell growth or viability, SRB).
With `N[C@@H](CCC(=O)N[C@@H](CS[Se]Cc1ccc(-c2cc(C(F)(F)F)nn2-c2ccc(S(N)(=O)=O)cc2)cc1)C(=O)NCC(=O)O)C(=O)O` the IC50 was 3.1 ± 0.4 µM (WM-115 melanoma cells; cell viability, MTS; 72 h, vertical stage).
`COC(=O)[C@H]1[C@H]2C[C@H]3O[C@@]4(CCN3C[C@H]2C[C@@H](OC(=O)c2cc(OC)c(OC)c(OC)c2)[C@@H]1OC)C(=O)Nc1cc(OC)c(-c2ccc(C(F)(F)F)cc2)cc14` has an IC50 of 1.95 µM (RS4-11; cell growth or viability, trypan blue; 72 h).
With `CC1=CC(c2ccccc2)=[O+][Pt-2]([NH3+])([NH3+])[O]1.O=[N+]([O-])[O-]` (stereo not shown) the IC50 was 8 µM (U2OS; cell growth or viability, MTT).
`Cc1c(C)n(-c2c(C(C)C)cccc2C(C)C)c(=[Se])n1-c1c(C(C)C)cccc1C(C)C.[Cl][Ag]` gave an IC50 of 3 ± 0.9 µM (human ovarian cancer cells; cell viability, MTT; 72 h).
For `COc1c(O)cc2oc3cc4c(c(O)c3c(=O)c2c1CC=C(C)C)C=CC(C)(C)O4`, the IC50 was 17.4 µM (SW480; cell growth or viability; 48 h).
`C=CC(OC(C)=O)c1ccc(OC)cc1` (stereo not shown) has an IC50 of over 50 µM (HSC-4; MTT; 24 h).
The IC50 of `C=CC(=O)N1CCCC(n2c(=O)c3ncccc3n(Cc3ccc(Oc4ccccc4)cc3)c2=O)C1` (stereo not shown) is reported as over 10 µM (solid tumour cell lines; cell growth, MTT).
`CC1=C2[O][Ru-]([Cl])[O+]=C2C=CN1CCCCCCN1C=CC2=[O+][Ru-]([Cl])[O]C2=C1C.Cc1ccc(C(C)C)cc1.Cc1ccc(C(C)C)cc1` has an IC50 of over 20 µM (LCLC-103H; cell growth or viability, crystal violet; 96 h).
For `COc1ccc2cc3[n+](cc2c1OCc1cn(Cc2cccc(Cl)c2)nn1)CCc1cc2c(cc1-3)OCO2`, the IC50 was 46.8 µM (SW1990; cell growth or viability, MTT).
For `CC(=O)Oc1ccccc1C(=O)[O][Pt]([NH2])([NH2])([Cl])([Cl])[O]C(=O)C(Cl)Cl`, the IC50 was 0.06 µM (BCPAP; cell growth or viability, MTT; 72 h).
For `C=C[C@H](OC(C)=O)c1ccc(OC(C)=O)cc1`, the IC50 was 5.5 µM (HSC-4; cell growth or viability, MTT; 24 h).
The IC50 of `COc1ccc(C[C@H]2COC(=O)[C@@H]2Cc2ccc(OCCCCCCCC(=O)NO)c(OC)c2)cc1OC` is reported as over 5 µM (Kasumi 1; cell growth or viability, CCK-8; 48 h).
`CC(=O)O[C@H]1OC[C@@H]2C=C([C@@]3(C)CCCC(C)(C)C3)CC[C@H]12` gave an IC50 of 0.12 µM (human T lymphocytes; interleukin-2 release, inhibitor, ELISA; pre-treated 2 h, with: concanavalin A 50 µg/mL 48 h).
With `N=C(N)NCCC[C@H](N)C(=O)N1CCC[C@H]1C(=O)N[C@H](CC(=O)N[C@@H](Cc1ccc(O)cc1)C(=O)O)c1cccc2ccccc12` the IC50 was over 50 µM (MCF-7 (no HER2 overexpression)).
`C=C1C(=O)[C@@]23CC[C@@H]4[C@](C)(COC(C)=O)CCC[C@@]4(COC(C)=O)[C@@H]2[C@@H](O)C[C@@H]1C3` gave an IC50 of 2.4 µM (HBE; cell growth or viability, MTT).
With `Cc1cn([C@@H]2O[C@H](CSSc3ccccn3)[C@@H](O)[C@H](F)[C@H]2O)c(=O)[nH]c1=O` the IC50 was 84 µM (Molt4/C8; cell growth or viability).
`C1=[N+]2CCCC[N+]3=Cc4ccc5[n]4[Au-]23[n]2c1ccc2-c1nc2ccccc2nc1-5.F[P-](F)(F)(F)(F)F` has an IC50 of 25 µM (renal cancer cell lines; NCI60 panel mean).
`Cc1cc(C#N)cc(C)c1Oc1cc(Nc2ccc(C#N)cn2)nc2ccncc12` has an IC50 of over 127 µM (HuCC-A1; 48 h).
The IC50 of `C=C1C(=O)[C@@]23CC[C@@H]4C(C)(C)CCC[C@@]4(CO)[C@@H]2[C@@H](O)C[C@@H]1C3` is reported as over 20 µM (HBE; cell growth or viability, MTT).
`CC(=O)O[C@@H]1CC[C@@]2(C)[C@@H](CC[C@]3(C)[C@@H]2C(=O)C=C2[C@@H]4[C@@H](C)[C@H](C)CC[C@]4(C)CC[C@]23C)[C@@]1(C)C(=O)NCCNC(=O)c1ccc(C)cc1` gave an IC50 of 5 µM (HBE; cell growth or viability, MTT; 48 h).
`CCOP(=O)(OCC)C(Cc1ccccc1F)Nc1ccc(Cl)cc1` (stereo not shown) gave an IC50 of 67.9 µM (T98G; cell growth or viability, MTT; 48 h).
For `CC(=O)O[C@@H]1CC[C@@]2(C)[C@@H](CC[C@]3(C)[C@@H]2C(=O)C=C2[C@@H]4[C@@H](C)[C@H](C)CC[C@]4(C)CC[C@]23C)[C@@]1(C)C(=O)NCCNC(=O)C1CC1`, the IC50 was 18.5 µM (HBE; cell growth or viability, MTT; 48 h).
For `COc1cc(/C=C/C(=O)CC(C)=O)ccc1O`, the IC50 was 20 µM (mouse Splenic lymphocyte; cell growth or viability, MTT; 48 h).
For `CC(=O)Oc1ccccc1C(=O)[O][Pt]([NH2])([NH2])([Cl])([Cl])[O]C(=O)CCCc1ccccc1`, the IC50 was 0.06 µM (BCPAP; cell growth or viability, MTT; 72 h).
The IC50 of `C=C1C2CC3C4N5CC6(C)CCCC47C6C5CC3(C1O)C7C2` (stereo not shown) is reported as 39.9 µM (HBE; cell growth or viability, MTT).
With `N=C(N/N=C/c1ccc(Cl)cc1)N/N=C/c1ccc(Cl)cc1` the IC50 was 36.6 µM (KP-4; cell growth or viability, crystal violet; 72 h).
The IC50 of `N=C(N)NCCC[C@H](N)C(=O)N1CCC[C@H]1C(=O)N[C@H](CC(=O)N[C@@H](Cc1ccccc1)C(=O)O)c1cccc2ccccc12` is reported as over 50 µM (MCF-7 (no HER2 overexpression)).
For `N#C/C(=C\c1cn(-c2ccccc2)nc1-c1ccccc1)c1nc2ccccc2[nH]1`, the IC50 was over 100 µM (SW1990; cell growth or viability, ATP luminescence; 72 h).
`Cc1cc(N)c2cc(NC(=O)CCCCCC(=O)Nc3ccc4nc(C)cc(N)c4c3)ccc2n1` gave an IC50 of over 100 µM (CHO wild type; FGF2 binding to heparan sulfate, inhibitor, flow cytometry; on ice, with: biotinylated FGF2 2.5 nM).
The IC50 of `COc1ccc2cc3[n+](cc2c1OCc1cn(Cc2ccc(Cl)cc2Cl)nn1)CCc1cc2c(cc1-3)OCO2` is reported as 28.1 µM (SW1990; cell growth or viability, MTT).
`Cc1cc(CN2CCC(CCCCCCC(=O)NO)CC2)cc(C)c1-c1ncn(C)c1-c1ccc(C#N)c2ccccc12` gave an IC50 of 0.08 µM (HuH-1; cell growth or viability, MTT; 72 h).
`CC(=O)O[C@@H]1CC[C@@]2(C)[C@@H](CC[C@]3(C)[C@@H]2C(=O)C=C2[C@@H]4[C@@H](C)[C@H](C)CC[C@]4(C)CC[C@]23C)[C@@]1(C)C(=O)NCCNC(=O)CCCCCCCBr` gave an IC50 of 22.5 µM (HBE; cell growth or viability, MTT; 48 h).
The IC50 of `Cc1cc(C)c(-n2c3c([n+](-c4c(C)cc(C)cc4C)[c]2[Au-][Cl])-c2cccc4cccc-3c24)c(C)c1` is reported as 8 ± 1 µM (2008; cell growth, MTT; 72 h).
The IC50 of `COc1c(C)c(OS(=O)(=O)c2ccccc2)c(C)c(O)c1C(=O)/C=C/c1ccccc1` is reported as 27 µM (FaDu; cell growth or viability, SRB; 72 h).
`O=C(c1ccncc1)N1N=C2/C(=C/c3ccc(Cl)cc3)CCCC2C1c1ccc(Cl)cc1` (stereo not shown) gave an IC50 of 0.15 µM (human erythrocytes; membrane protection, HRBC membrane stabilization).
The IC50 of `N=C(N/N=C/c1ccccc1)N/N=C/c1ccccc1` is reported as 9.3 µM (KP-4; cell growth or viability, crystal violet; 72 h).
With `COc1ccc2cc3[n+](cc2c1OCc1cn(Cc2c(Cl)cccc2Cl)nn1)CCc1cc2c(cc1-3)OCO2` the IC50 was 22.8 µM (SW1990; cell growth or viability, MTT).
The IC50 of `CCn1nc(Cl)c2c1-c1cnc(N)c(c1)O[C@H](C)c1cc(F)ccc1-c1nn(C)cc1C2` is reported as under 0.0011 µM (wild-type ALK fusion cell lines; cell viability; geometric mean over 8 lines).
The IC50 of `CCNc1cc2c(cc1C)C1(c3cc(C)c(NCC)cc3O2)c2ccccc2C(=O)N1N=Cc1c[c-]c(-c2ccccn2)cc1.Cc1c(C)c(-c2ccc(-c3ccccc3)cc2)[c-](C)c1C.[Cl-].[Ir+3]` is reported as 23.2 ± 3.6 µM (A549 human cancer cells; cell growth, MTT; 24 h).
`CCC(C)C1OC(=O)C(C)(C)C(=O)C(Cc2ccccc2)OC(=O)C(C(C)C)OC(=O)C(NC(=O)c2cccc(O)c2)C(C)OC1=O` (stereo not shown) has an IC50 of over 20 µM (HCT-8/T taxol-resistant; cell viability, CCK-8; 72 h).
The IC50 of `N#C/C(=C\c1cn(-c2ccccc2)nc1-c1cccc(Br)c1)c1nc2ccccc2[nH]1` is reported as 64.1 µM (SW1990; cell growth or viability, ATP luminescence; 72 h).
With `CCOP(=O)(OCC)C(Cc1ccc(F)cc1)Nc1ccc(Cl)cc1` (stereo not shown) the IC50 was 88.2 µM (U-118-MG; cell growth or viability, MTT; 48 h).
`Cn1cc(-c2cc(N3CCCCS3(=O)=O)ccc2N[C@H]2CC[C@H](C)CC2)c2cc[nH]c2c1=O` (stereo in doubt) has an IC50 of 0.00053 µM (Light2 cells expressing SMO^D473H; GLI-luciferase reporter, inhibitor, refers to: SMO^D473H).
`C=CC(=C)CC[C@]1(C)[C@H](C)C[C@H](OC(=O)CCCCCCC)[C@@]23C(=C[C@H](OC(C)=O)C[C@@H]12)[C@@H](OC(C)=O)O[C@H]3OC(C)=O` has an IC50 of 5.16 µM (KB; cell growth or viability, SRB).
`CC(C)c1cccc(C(C)C)c1-n1c(Cl)c(Cl)n(-c2c(C(C)C)cccc2C(C)C)c1=[Se].[Cl][Au]` gave an IC50 of 1.4 ± 0.2 µM (human ovarian cancer cells; cell viability, MTT; 72 h).
With `C[C@@H]1CC(=O)N(C2CCOCC2)N=C1c1ccc(NC(=O)N2Cc3ccncc3C2)cc1` the IC50 was 0.0027 µM (MDA-MB-453; cell growth or viability, ATP luminescence).
For `N=C(N/N=C/c1cncnc1)N/N=C/c1cncnc1`, the IC50 was 119 ± 14.3 µM (KP-4; cell growth, crystal violet; 72 h).
`CC(=O)O[C@@H]1CC[C@@]2(C)[C@@H](CC[C@]3(C)[C@@H]2C(=O)C=C2[C@@H]4[C@@H](C)[C@H](C)CC[C@]4(C)CC[C@]23C)[C@@]1(C)C(=O)NCCNC(=O)CCCCCCCCCCBr` has an IC50 of over 30 µM (HBE; cell growth or viability, MTT; 48 h).
For `Cc1cc(C#N)cc(C)c1Oc1cc(Nc2ccc(C#N)cn2)nc2cnccc12`, the IC50 was over 127 µM (HuCC-A1; 48 h).
For `CC(=O)O[C@@H]1CC[C@@]2(C)[C@@H](CC[C@]3(C)[C@@H]2C(=O)C=C2[C@@H]4[C@@H](C)[C@H](C)CC[C@]4(C)CC[C@]23C)[C@@]1(C)C(=O)NCCNC(=O)CCCCC[P+](c1ccccc1)(c1ccccc1)c1ccccc1`, the IC50 was over 30 µM (HBE; cell growth or viability, MTT; 48 h).
`CC(C)c1cccc(C(C)C)c1-n1ccn(-c2c(C(C)C)cccc2C(C)C)c1=[Se].[Cl][Ag]` gave an IC50 of 3.1 µM (LoVo; cell growth or viability, MTT; 72 h).

Repeated from above:
With `C[C@@H]1CC(=O)N(C2CCOCC2)N=C1c1ccc(NC(=O)N2Cc3ccncc3C2)cc1` the IC50 was 0.0027 µM (MDA-MB-453; cell growth or viability, ATP luminescence).
For `N=C(N/N=C/c1cncnc1)N/N=C/c1cncnc1`, the IC50 was 119 ± 14.3 µM (KP-4; cell growth, crystal violet; 72 h).
`CC(=O)O[C@@H]1CC[C@@]2(C)[C@@H](CC[C@]3(C)[C@@H]2C(=O)C=C2[C@@H]4[C@@H](C)[C@H](C)CC[C@]4(C)CC[C@]23C)[C@@]1(C)C(=O)NCCNC(=O)CCCCCCCCCCBr` has an IC50 of over 30 µM (HBE; cell growth or viability, MTT; 48 h).
For `Cc1cc(C#N)cc(C)c1Oc1cc(Nc2ccc(C#N)cn2)nc2cnccc12`, the IC50 was over 127 µM (HuCC-A1; 48 h).
